Published values from different studies.
Numbers after ± are the reported error. Values after ≈ are worked out from the molar mass of the structure shown.
Organism: Escherichia coli

CCCCCCCC(=O)NCC(=O)N[C@@H](CC(C)C)C(=O)N[C@@H](CC(C)C)C(=O)N[C@@H](CCCCN)C(=O)N[C@@H](CCCNC(=N)N)C(=O)N[C@H](C(=O)N[C@@H](CCCCN)C(=O)N[C@H](C(=O)N[C@@H](CC(C)C)C(=O)N[C@@H](CC(C)C)C(N)=O)[C@@H](C)O)[C@@H](C)CC
FIC index (checkerboard; ATCC 25922; with: rifampicin): 0.562

O=C(O)[C@@H]1Cc2c([nH]c3ccccc23)[C@@H](c2ccc(C(F)(F)F)cc2C(F)(F)F)N1
growth inhibition (BL21(DE3); 250 µM, 18 h): 0%

CCCCCCCCCCCCCC(=O)N[C@@H](Cc1ccc2ccccc2c1)C(=O)N[C@@H](CCCCN)C(=O)N[C@@H](CCCCN)C(=O)N[C@@H](CCCCN)C(=O)N[C@@H](CCCCN)C(N)=O
MBC (K12): 64 µg/mL

O=c1c(O)ccc(Br)cc1O
MIC80: 29.6 µM (≈ 6.42 µg/mL)

N[C@@H](CN[C@@H](CN[C@@H](CC(=O)O)C(=O)O)C(=O)O)C(=O)O
rescue concentration (expressing blaNDM-1, Mueller-Hinton broth; with: meropenem 2 µg/mL): 8 µg/mL

CC[C@H](C)[C@H](NC(=O)[C@H](CCCCN)NC(=O)[C@H](CCCCN)NC(=O)[C@H](CC(C)C)NC(=O)[C@H](CCCCN)NC(=O)[C@H](CCC(=O)O)NC(=O)[C@H](CCCCN)NC(=O)[C@@H](NC(=O)[C@H](CCCCN)NC(=O)[C@H](CC(N)=O)NC(=O)[C@H](CCCNC(=N)N)NC(=O)[C@H](Cc1ccccc1)NC(=O)[C@H](CCCCN)NC(=O)[C@H](CCCNC(=N)N)NC(=O)[C@H](CC(C)C)NC(=O)[C@H](CCCNC(=N)N)NC(=O)[C@H](CCCCN)NC(=O)[C@H](CCCNC(=N)N)NC(=O)[C@H](CC(C)C)NC(=O)[C@@H](N)CC(C)C)[C@@H](C)CC)C(=O)NCC(=O)N[C@@H](CCC(N)=O)C(=O)N[C@@H](CCCCN)C(=O)N[C@H](C(=O)N[C@@H](CCC(N)=O)C(=O)NCC(=O)N[C@@H](Cc1ccccc1)C(=O)N[C@H](C(=O)N1CCC[C@H]1C(=O)N[C@@H](CCCCN)C(=O)N[C@@H](CC(C)C)C(=O)N[C@H](C(=O)N1CCC[C@H]1C(=O)N[C@@H](CCCNC(=N)N)C(=O)N[C@H](C(=O)N[C@@H](CCC(=O)O)C(=O)N[C@@H](CO)C(=O)O)[C@@H](C)O)C(C)C)C(C)C)[C@@H](C)CC
lethal concentration (inhibition zone; JM109): 2.11 µM

CCCC(=O)NCC(=O)N[C@@H](CC(C)C)C(=O)N[C@@H](CC(C)C)C(=O)N[C@@H](CCCCN)C(=O)N[C@@H](CCCNC(=N)N)C(=O)N[C@H](C(=O)N[C@@H](CCCCN)C(=O)N[C@H](C(=O)N[C@@H](CC(C)C)C(=O)N[C@@H](CC(C)C)C(=O)NCCCC[C@H](NC(=O)[C@H](CC(C)C)NC(=O)[C@H](CC(C)C)NC(=O)[C@@H](NC(=O)[C@H](CCCCN)NC(=O)[C@@H](NC(=O)[C@H](CCCNC(=N)N)NC(=O)[C@H](CCCCN)NC(=O)[C@H](CC(C)C)NC(=O)[C@H](CC(C)C)NC(=O)CNC(=O)CCC)[C@@H](C)CC)[C@@H](C)O)C(=O)NCCCC[C@H](NC(=O)[C@H](CCCCNC(=O)[C@H](CC(C)C)NC(=O)[C@H](CC(C)C)NC(=O)[C@@H](NC(=O)[C@H](CCCCN)NC(=O)[C@@H](NC(=O)[C@H](CCCNC(=N)N)NC(=O)[C@H](CCCCN)NC(=O)[C@H](CC(C)C)NC(=O)[C@H](CC(C)C)NC(=O)CNC(=O)CCC)[C@@H](C)CC)[C@@H](C)O)NC(=O)[C@H](CC(C)C)NC(=O)[C@H](CC(C)C)NC(=O)[C@@H](NC(=O)[C@H](CCCCN)NC(=O)[C@@H](NC(=O)[C@H](CCCNC(=N)N)NC(=O)[C@H](CCCCN)NC(=O)[C@H](CC(C)C)NC(=O)[C@H](CC(C)C)NC(=O)CNC(=O)CCC)[C@@H](C)CC)[C@@H](C)O)C(N)=O)[C@@H](C)O)[C@@H](C)CC
FIC index (checkerboard; ATCC 25922; with: polymyxin B): 0.125

CCCCCCCCCCCCCC(=O)N[C@H](CCN)C(=O)N[C@@H]1C(=O)N[C@@H](CCN)C(=O)N[C@@H](CC(C)C)C(=O)N[C@@H](CCN)C(=O)N[C@H](Cc2ccccc2)C(=O)N[C@@H](CC(C)C)C(=O)N[C@@H](CCN)C(=O)N[C@H](CCN)C(=O)N[C@@H](C(C)C)C(=O)N[C@@H](CC(=O)O)C(=O)O[C@@H]1C
reduction in bacterial burden (MG1655-mcr-1, colistin-resistant, neutropenic mice, thigh infection; subcutaneous, 20 mg/kg once daily; relative to: vehicle): 3.42 log10 CFU

CC[C@H](C)[C@H](NC(=O)[C@H](CCCCN)NC(=O)[C@H](CCCCN)NC(=O)[C@H](CC(C)C)NC(=O)[C@H](CCCCN)NC(=O)[C@H](CCC(=O)O)NC(=O)[C@H](CCCCN)NC(=O)[C@@H](NC(=O)[C@H](CCCCN)NC(=O)[C@H](CC(N)=O)NC(=O)[C@H](CCCNC(=N)N)NC(=O)[C@H](Cc1ccccc1)NC(=O)[C@H](CCCCN)NC(=O)[C@H](CCCNC(=N)N)NC(=O)[C@H](CC(C)C)NC(=O)[C@H](CCCNC(=N)N)NC(=O)[C@H](CCCCN)NC(=O)[C@H](CCCNC(=N)N)NC(=O)[C@H](CC(C)C)NC(=O)CN)[C@@H](C)CC)C(=O)NCC(=O)N[C@@H](CCC(N)=O)C(=O)N[C@@H](CCCCN)C(=O)N[C@H](C(=O)N[C@@H](CCC(N)=O)C(=O)NCC(=O)N[C@@H](Cc1ccccc1)C(=O)N[C@H](C(=O)N1CCC[C@H]1C(=O)N[C@@H](CCCCN)C(=O)N[C@@H](CC(C)C)C(=O)N[C@@H](C)C(=O)N1CCC[C@H]1C(=O)N[C@@H](CCCNC(=N)N)C(=O)N[C@H](C(=O)N[C@@H](CC(=O)O)C(=O)N[C@@H](Cc1ccc(O)cc1)C(=O)O)[C@@H](C)O)C(C)C)[C@@H](C)CC
lethal concentration (inhibition zone; D. J45b): 2.19 µM

C[C@]1(COC(=O)c2ccc(O)c(O)c2)[C@H](C(=O)O)N2C(=O)/C(=C/c3ccccn3)[C@H]2S1(=O)=O
MIC of ceftazidime (broth microdilution; MG1655 expressing CTX-M-2; 16 µg/mL): ≤ 1 µg/mL

CC[C@H](C)[C@H](NC(=O)[C@H](CO)NC(=O)[C@H](CO)NC(=O)[C@H](Cc1ccccc1)NC(=O)CN)C(=O)N[C@@H](Cc1ccccc1)C(=O)N[C@@H](CCCNC(=N)N)C(=O)NCC(=O)N[C@H](C(=O)N[C@@H](C)C(=O)N[C@@H](CCCCN)C(=O)N[C@@H](Cc1ccccc1)C(=O)N[C@@H](C)C(=O)N[C@@H](CO)C(=O)N[C@@H](CCCCN)C(=O)NCC(=O)N[C@@H](CC(C)C)C(=O)NCC(=O)N[C@@H](CCCCN)C(=O)N[C@@H](CC(=O)O)C(=O)N[C@@H](CC(C)C)C(=O)N[C@@H](C)C(=O)N[C@@H](CCCNC(=N)N)C(N)=O)C(C)C
MBC (ATCC 8739; with: 2.5 mM CaCl2): > 128 µM

CC(C)=CCC/C(C)=C/CNCCNC1C2CC3CC1CC(O)(C3)C2 (stereo not drawn)
IC50 (K12): 128 ± 3.4 µM

A few entries again:
CC(C)=CCC/C(C)=C/CNCCNC1C2CC3CC1CC(O)(C3)C2 (stereo not drawn)
IC50 (K12): 128 ± 3.4 µM
